Published values from different studies.
Numbered parts are unrelated; each lists some results of a single study.

Study 1
Target: Centromere-binding protein 1, full length, N-terminal tag (CBF1, Saccharomyces cerevisiae, UniProt P17106, residues 1-351)
UniProt P17106, sequence (whole entry, looked up): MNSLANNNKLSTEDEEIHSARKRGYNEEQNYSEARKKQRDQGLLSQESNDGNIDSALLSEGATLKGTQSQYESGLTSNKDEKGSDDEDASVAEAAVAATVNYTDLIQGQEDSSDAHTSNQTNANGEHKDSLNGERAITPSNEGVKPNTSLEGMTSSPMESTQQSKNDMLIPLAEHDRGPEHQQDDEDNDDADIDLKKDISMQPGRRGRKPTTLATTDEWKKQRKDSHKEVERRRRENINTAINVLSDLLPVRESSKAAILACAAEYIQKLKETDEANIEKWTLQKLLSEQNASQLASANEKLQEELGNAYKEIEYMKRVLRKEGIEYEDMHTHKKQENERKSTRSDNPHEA
Technique: protein-binding microarray
Form: double-stranded DNA, one strand shown
Matrix: in vitro
Tested at: 0.8 µM
Notes: whole 60-bp probe, no competitor
Direction: higher = stronger binding
Constant ends, left off below: … GTCTTGATTCGCTTGACGCTGCTG
Strand	fluorescence intensity [a.u.]
CTATGAGGAAAAAATCACGTTAAATAGTTTCATTTC	665
GAAATCATCAAACGGCACGCGCAGGGATGAAGGTAG	732
GAATCTTACATATATCAGGCGAAACGGTTATACTAG	513
CTACACCATAGGCACCACCACTGTTTGTGTAAATTC	497
TGTACGAAGCTATGCATGACCACTATAGTAGTTAGG	612
GAAAATGGAACACTCCTCACCACGAGGTTCTAATAG	688
CTAGGGTAGTTAGTGCACGCGGGGAACTACCTCTTC	518
CTATTGTAGCTACACCACGATTGAGTGTCTGCATTC	513
CTATACAAGTCGTCGTCCGTGACATAGGATCAGTTC	646

Study 2
Target: Histone acetyltransferase KAT6A, winged helix 2, GST fusion (KAT6A, Homo sapiens, UniProt Q92794, residues 85-181)
Technique: protein binding microarray
Form: double-stranded DNA, one strand shown
Matrix: in vitro
Tested at: not given
Notes: 8-mer, flanks averaged, mean of 2 arrays, mostly near background
Baseline: not given
Direction: higher = stronger binding
Construct (chain): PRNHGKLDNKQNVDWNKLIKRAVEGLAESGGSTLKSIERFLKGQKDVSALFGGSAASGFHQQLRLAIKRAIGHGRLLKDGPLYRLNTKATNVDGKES
Strand	E-score
AACTCATA	-0.0677
AATTAACC	0.162
CGGAAGCC	0.215
AACGACGT	-0.127
AGGATGGC	0.0779
CATTTTCA	-0.027
TGCGGAAA	0.0649
CGAGCATA	0.113
CACGCACG	-0.0426

Study 3
Target: Interferon regulatory factor 7, full length, phosphomimetic (IRF7, Homo sapiens, UniProt Q92985, residues 1-503, S471D/S472D/S475D/S476D/S477D/S483D/S484D/S487D)
Technique: protein-binding microarray
Form: double-stranded DNA, one strand shown
Matrix: in vitro
Tested at: 2200 nM top
Notes: 60-bp whole probe
Together with: salmon DNA 0.4 mg/ml
Baseline: random background probes
Direction: higher = stronger binding
Constant ends, left off below: GCCTAGCAC … GTCTTGATTCGCTTGACGCTGCTG
Construct (chain): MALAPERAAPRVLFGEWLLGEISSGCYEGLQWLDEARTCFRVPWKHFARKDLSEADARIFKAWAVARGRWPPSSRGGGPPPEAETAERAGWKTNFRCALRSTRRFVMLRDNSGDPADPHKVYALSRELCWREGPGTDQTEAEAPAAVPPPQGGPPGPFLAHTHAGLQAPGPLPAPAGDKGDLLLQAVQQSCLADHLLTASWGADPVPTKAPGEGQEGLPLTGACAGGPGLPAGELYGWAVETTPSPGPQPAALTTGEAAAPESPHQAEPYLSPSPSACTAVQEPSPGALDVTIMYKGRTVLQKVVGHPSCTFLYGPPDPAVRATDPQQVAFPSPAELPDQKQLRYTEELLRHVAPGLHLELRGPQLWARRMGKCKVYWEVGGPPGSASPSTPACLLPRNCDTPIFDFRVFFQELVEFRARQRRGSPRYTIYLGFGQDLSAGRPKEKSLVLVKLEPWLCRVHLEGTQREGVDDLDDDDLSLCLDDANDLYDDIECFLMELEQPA
Strand	fitted relative affinity [z-score]
TTAGAACTGAGACTGCATTAGTGCTAG	-0.766
GACGGACTGGACTCTGGGGACGTGCTA	-0.853
CTGCCCTGGTTCCCCTGCCTGTGCTAG	-0.081
TGGGATTTTTAGTTAGAAAAGTGCTAG	-0.479
GACGGACTGGACTTTCGGGAAGTGCTA	0.736
TCACATTTTCGTTTTTAACTGTGCTAG	9.07

Other studies, line by line
Substance	target	assay	test system	setting	how to read	quantity	result
PhoQ, residues 284 288 289 292 302 303 AQGLTV	PhoP, residues 12 14 15 18 19 AQCLL (Escherichia coli, UniProt P23836)	Sort-seq, measured: YFP reporter	E. coli	PhoQ-PhoP variant library, together with: 10 µM Mg2+	baseline: high Mg2+ state, higher = stronger signaling	fold induction	3.54
